Results collected from several papers.
Parts stem from different laboratories: compare values within a part only. Changes are numbered by the printed parent chain.

Series 1 — method: universal PBM; form: double-stranded DNA, one strand shown; sample: in vitro; tested at: 600 nM; direction: higher = stronger binding; endpoint: E-score
Target: Sal-like protein 4, full length isoform A (SALL4, Homo sapiens, UniProt Q9UJQ4, residues 1-1053)
Sequence of UniProt Q9UJQ4 (whole entry, looked up): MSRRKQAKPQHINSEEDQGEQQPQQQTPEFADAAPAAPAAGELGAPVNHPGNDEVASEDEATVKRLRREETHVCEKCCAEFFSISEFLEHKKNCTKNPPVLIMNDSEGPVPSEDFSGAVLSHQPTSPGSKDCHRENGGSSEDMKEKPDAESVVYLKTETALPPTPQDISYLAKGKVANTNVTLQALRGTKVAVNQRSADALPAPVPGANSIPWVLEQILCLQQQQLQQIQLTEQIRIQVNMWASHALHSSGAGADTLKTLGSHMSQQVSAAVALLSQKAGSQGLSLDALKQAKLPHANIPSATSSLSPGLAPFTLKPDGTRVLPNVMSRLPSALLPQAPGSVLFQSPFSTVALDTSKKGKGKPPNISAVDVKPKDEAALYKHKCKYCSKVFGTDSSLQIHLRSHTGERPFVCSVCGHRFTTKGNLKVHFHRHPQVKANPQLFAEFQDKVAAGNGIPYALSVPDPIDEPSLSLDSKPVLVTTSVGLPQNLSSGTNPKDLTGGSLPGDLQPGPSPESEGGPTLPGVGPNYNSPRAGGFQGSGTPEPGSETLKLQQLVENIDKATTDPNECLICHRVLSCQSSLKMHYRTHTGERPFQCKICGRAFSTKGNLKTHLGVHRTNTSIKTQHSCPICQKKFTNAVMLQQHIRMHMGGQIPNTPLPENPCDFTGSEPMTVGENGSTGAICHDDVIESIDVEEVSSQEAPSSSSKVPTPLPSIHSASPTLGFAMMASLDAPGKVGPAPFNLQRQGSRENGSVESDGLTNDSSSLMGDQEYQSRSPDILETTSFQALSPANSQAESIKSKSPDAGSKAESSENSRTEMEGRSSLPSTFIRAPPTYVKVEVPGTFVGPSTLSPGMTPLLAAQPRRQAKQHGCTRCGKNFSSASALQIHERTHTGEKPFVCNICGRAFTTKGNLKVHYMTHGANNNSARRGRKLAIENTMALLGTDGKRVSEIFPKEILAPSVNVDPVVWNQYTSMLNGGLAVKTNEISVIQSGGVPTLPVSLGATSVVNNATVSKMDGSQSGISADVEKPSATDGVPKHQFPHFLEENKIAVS
Notes: 8-mer, flanks averaged, mean of replicates
ATAGCCTC: -0.0609
CTGGCAAA: -0.0232
GCCTTATA: 0.089
GCTATGTA: 0.201
CCCGCAGC: -0.363
AATGGTAC: 0.195
AACCAAGT: 0.0947
GACCGGCA: -0.302
GTCAGTCA: -0.00732
AACGACGG: -0.0636
AGGACGGC: -0.196
ACGACAGC: -0.0449
CTAAGCGC: -0.215
AATTTGTG: 0.188
ATAAAGTA: 0.37
TCACTAAA: 0.157
TATTGAAA: 0.395
GTAACCAA: -0.0452
CGATTCAG: -0.0764
CCTCCCAC: -0.18
GTGCTACA: 0.0403
CCATTGCG: -0.187
ATTGCAAC: 0.00985
TGAGCGCA: -0.183

Series 2 — method: RNA Bind-n-Seq; form: RNA; sample: in vitro; tested at: not given; relative to: input RNA pool; direction: higher = stronger binding; endpoint: bound/input enrichment
Target: RING finger protein unkempt homolog, zinc fingers 1-6, GST-SBP tag (UNK, Homo sapiens, UniProt Q9C0B0, residues 30-357)
Sequence of UniProt Q9C0B0 (30-357, looked up): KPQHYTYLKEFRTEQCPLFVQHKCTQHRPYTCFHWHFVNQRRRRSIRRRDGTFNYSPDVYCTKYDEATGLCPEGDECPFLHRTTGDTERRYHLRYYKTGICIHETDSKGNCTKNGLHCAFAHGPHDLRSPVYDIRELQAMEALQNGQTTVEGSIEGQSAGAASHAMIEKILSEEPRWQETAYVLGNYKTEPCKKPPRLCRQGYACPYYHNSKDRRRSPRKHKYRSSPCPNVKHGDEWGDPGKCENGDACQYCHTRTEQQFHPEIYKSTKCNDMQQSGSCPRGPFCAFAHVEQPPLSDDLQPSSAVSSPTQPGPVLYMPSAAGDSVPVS
Notes: RNA with constant flanks, human-mouse chimeric sites, ends assumed
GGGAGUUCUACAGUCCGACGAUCUCUUUAAAAAAAAAAUUACCUUUUCUGACAGUGCUUUCCCUCCCAUAGAUCCACGUUCACACUAGAAGAGCAAAGGCUUUGCACGGAUCUGAUGAUGCUGAUGAAGAAAGAUUUCUGAGACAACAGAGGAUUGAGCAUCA: 0.681 ratio
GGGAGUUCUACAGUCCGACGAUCAAAGCCCUUGAAGAAAAAAAAAACUCGAACAGAUUUGACAAGGGUAGCCAGCUUGGAGUCUAGCAACUUGCCAAUGUGUUUACCAAUCUGGGGGCUUGUUUUUCUUUUCUUCUUUCAAAUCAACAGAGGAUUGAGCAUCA: 0.421 ratio
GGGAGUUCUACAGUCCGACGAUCUGGCGCCUGCGCUCCCCACUCGUGUUUUUAAGUGUAUAAGAUGUAUAUACAUGUAUUUACAAUUGAGCUUUUGUUACUAUAAUACUGAAUGCUACUGGAGAUUAUGAAAAAUGUUUCAAUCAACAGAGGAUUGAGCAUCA: 0.148 ratio
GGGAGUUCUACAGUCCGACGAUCAACAGAUUUCUCAAGCACAUUCCAAGCGAGAAUGCUGGGGUGAUCAUUGUUGCCCAUGUGCCUUCUGACUGAGCUUUAAUGCUGUUCCAUGUUACAUCUUUCCUUCACUCCAGAAUUGUUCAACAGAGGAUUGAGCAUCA: 0.156 ratio
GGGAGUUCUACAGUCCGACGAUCUUUCUAUUGCAGCAAACGAUGCUAAGAAUUAAGGAUCCUAAGAAGUCCCUGGAUUUUUAUACUAGAGUUCUUGGACUGACCCUCCUGCAGAAGCUUGACUUCCCUGCUAUGAAGUUCUCGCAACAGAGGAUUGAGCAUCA: 0.453 ratio
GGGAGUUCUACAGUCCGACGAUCUUAAUCCCCUUUACUGCUCCCCCACUUCUCAUGGUAAUAACAAAGUCUUAUAUCCCCAUAUUAGCUUUUACUCAGAUGGCUUAUGGAGCCGGUUUCCUAGCUUUCUUGGGAGGGAUCAGACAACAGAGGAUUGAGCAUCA: 0.768 ratio
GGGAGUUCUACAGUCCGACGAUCGGAAGUACAUUAAUGGAGAUUGAUGGUGAUAAAGGCAAGCAGGGCGGGCCCACCUACUACAUAGACACCAAUGCCCUCCGCGUGCCCAGGGAGAACAUGGAGGCCAUCUCACCACUCAAGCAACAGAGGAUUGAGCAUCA: 0.23 ratio
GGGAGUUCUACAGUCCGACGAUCUGUAACUUAUCUGUAAAAGGUUCCCCCCCCCUACUGUAAAAAAAUAUGCAUGUAUAGUAAUUAGGACUUCAUUCCUCCAUGUUUUCUUCCCUUAUCUUACUGUCAUUGUCCUUAAACCUUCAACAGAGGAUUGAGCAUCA: 5.29 ratio

Series 3 — target: CCNB3, cyclin fold, Cln2 fusion (human); method: yeast growth competition, sequencing; sample: yeast; notes: weak parent motif; relative to: not given; direction: higher = stronger binding; endpoint: normalised enrichment score
Starting sequence: RBL1 docking peptide (human); GSAKRRLFGEDPP
GSAKRRLGGEDPP [F8G]: -0.24
GSAMRRLFGEDPP [K4M]: 0.312
GSAKTRLFGEDPP [R5T]: -0.0844
GSAKRRRFGEDPP [L7R]: -0.0335
GSAKRRLFGKDPP [E10K]: 0.453
GSAKRRAFGEDPP [L7A]: 0.196
GSAKRRLFGEDRP [P12R]: 0.407
GSAKRRLFGEDPM [P13M]: 0.259
GSAKRRLFGEDPW [P13W]: 0.981
GSAKRRLFGENPP [D11N]: 0.784
GSAKRRLFGEDKP [P12K]: 0.581
GSAKRTLFGEDPP [R6T]: 0.987
GSAKRRLFEEDPP [G9E]: 0.769
GSAKRALFGEDPP [R6A]: 0.222
GSAKRRMFGEDPP [L7M]: 0.0436
GSAKRRLPGEDPP [F8P]: 0.368
GSTKRRLFGEDPP [A3T]: 0.562

Series 4 — method: RNAcompete; form: RNA; sample: in vitro; tested at: 20 nM; notes: 7-mer, probes averaged, single round; relative to: mean of 7-mers; direction: higher = stronger binding; endpoint: 7-mer Z-score
Target: PABPC1L2, full length, GST fusion (mouse, UniProt A0ABA7IW68)
Target sequence (chain): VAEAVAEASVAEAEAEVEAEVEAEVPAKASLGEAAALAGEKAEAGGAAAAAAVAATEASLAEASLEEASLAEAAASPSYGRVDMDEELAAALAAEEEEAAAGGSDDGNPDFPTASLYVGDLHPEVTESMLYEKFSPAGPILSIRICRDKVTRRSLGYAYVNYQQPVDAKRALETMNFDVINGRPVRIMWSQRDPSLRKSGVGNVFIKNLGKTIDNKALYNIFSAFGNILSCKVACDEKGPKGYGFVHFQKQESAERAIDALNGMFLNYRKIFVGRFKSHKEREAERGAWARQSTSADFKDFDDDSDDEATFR
AGAUGCU: -0.304
UUCAUUG: -0.258
ACUUAAG: -0.0409
GACUAGU: -0.182
CAGCGCG: -0.213
UAUCCGA: -0.206
UUGAAAA: 2.63
CUUGUGG: -0.199
GUAAUCA: -0.179
CAUCGAC: -0.13
GGCUUUG: -0.32
GGUUCGU: -0.4
UUCCACC: -0.295
GUCAGGC: -0.0844
GAGGAGA: 0.167
GCGCGGA: 0.0315
GGGAACA: 0.325
GGAAUGC: 0.0442
UCUUUAG: -0.0591
UGAAGCC: -0.121
UUUCCAU: -0.307
AACGCCU: -0.113

Series 5 — method: DHFR PCA, deep sequencing; sample: yeast; with: (+)-ABA 0.11 µM; relative to: wild-type fitted maximum; direction: higher = stronger binding; endpoint: relative binding score
Target: ABI1, truncated, D143A, DHFR fusion (Arabidopsis thaliana)
Notes: methotrexate growth selection, single substitutions
Starting sequence: PYL1, truncated, DHFR fusion (Arabidopsis thaliana); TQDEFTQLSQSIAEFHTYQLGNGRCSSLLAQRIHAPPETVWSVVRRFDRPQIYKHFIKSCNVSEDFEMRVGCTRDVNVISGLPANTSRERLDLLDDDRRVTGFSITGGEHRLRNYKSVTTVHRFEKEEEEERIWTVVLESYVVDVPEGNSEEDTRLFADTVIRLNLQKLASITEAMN
S59C: 5.55%
V62F: 1.01%
Q51S: 1.37%
R32Y: 18.6%
K116F: -3.21%
S104V: -2.76%
R111I: 3.63%
L164N: 0.793%
V121W: -3.38%
I162P: 4.82%
L91G: -2.51%
G107K: -5.09%
E4K: 2.98%
R24M: 13%

Series 6 — method: RNA Bind-n-Seq; form: RNA; sample: in vitro; tested at: 200 nM; notes: whole 134-nt RNA, ends assumed; with: 150 mM LiCl; relative to: input library; direction: higher = stronger binding; endpoint: log2 enrichment; library: 7-deaza-guanosine replaces G
Target: Ras GTPase-activating protein-binding protein 1, full length (G3BP1, Homo sapiens, UniProt Q13283)
Sequence of UniProt Q13283 (whole entry, looked up): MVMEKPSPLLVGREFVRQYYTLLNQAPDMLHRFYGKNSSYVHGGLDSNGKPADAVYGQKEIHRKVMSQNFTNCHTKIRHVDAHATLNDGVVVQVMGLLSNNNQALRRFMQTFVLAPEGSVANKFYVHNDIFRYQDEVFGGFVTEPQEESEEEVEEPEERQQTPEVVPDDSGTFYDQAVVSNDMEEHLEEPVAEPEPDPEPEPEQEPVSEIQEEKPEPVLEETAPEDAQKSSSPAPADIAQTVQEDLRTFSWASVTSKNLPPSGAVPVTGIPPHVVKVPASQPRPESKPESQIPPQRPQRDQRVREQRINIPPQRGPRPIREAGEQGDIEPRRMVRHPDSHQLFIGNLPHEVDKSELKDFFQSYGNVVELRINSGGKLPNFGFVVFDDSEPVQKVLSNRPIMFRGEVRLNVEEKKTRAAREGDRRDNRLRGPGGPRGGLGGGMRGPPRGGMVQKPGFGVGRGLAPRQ
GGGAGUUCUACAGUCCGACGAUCUGUGAGGUGGAUUUUGUUUAUUUUUUUAGCUCAUUUCCAGGGGUGGGAAUUUUUUUUUAAUAUGUGUCAUGAAUAAAGUUGUUUUUGAAAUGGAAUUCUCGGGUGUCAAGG: 0.236
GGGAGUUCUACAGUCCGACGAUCCUGUGCUACACAUCGUAUGUACCGAAUCGGAAAAAAAGGAAAAAAAGGGGAAAAAAAGGGGAAAGUAUUAUGUUACGCCGUUCGGAUCUGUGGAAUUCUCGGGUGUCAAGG: -0.286
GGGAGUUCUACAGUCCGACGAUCCUGUGCUACACAUCGUAUGUACCGAAUCGGGGUUUUUUGGGUUUUUUGGGGUUUUUUGGGGAAAGUAUUAUGUUACGCCGUUCGGAUCUGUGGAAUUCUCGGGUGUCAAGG: 1.36
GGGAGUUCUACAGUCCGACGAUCUGAGAGGUGGAUUUUGUUUAUUUUUUUAGCUCAUUUCCAGGGGUGGGAAUUUUUUUUUAAUAUGUGUCAUGAAUAAAGUUGUUUUUGAAAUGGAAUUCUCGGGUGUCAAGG: -0.135
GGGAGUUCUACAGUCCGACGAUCGUCCUGUGCUACACAUCGUAUGUACCGAAUCGGUUUUUUGGUUUUUUGGGUUUUUUGGAAAGUAUUAUGUUACGCCGUUCGGAUCUGCACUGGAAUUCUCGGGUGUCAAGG: -0.777
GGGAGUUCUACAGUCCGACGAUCUCAAGUCCUGUGCUACACAUCGUAUGUACCGAAUCGGGUUUUUGGGAGGGUGGGAAAGUAUUAUGUUACGCCGUUCGGAUCUGCACUUCCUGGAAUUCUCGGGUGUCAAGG: -0.282
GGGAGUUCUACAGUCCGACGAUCCUCAAGUCCUGUGCUACACAUCGUAUGUACCGAAUCGGGUUGGUUGGGUUGGGGAAAGUAUUAUGUUACGCCGUUCGGAUCUGCACUUCCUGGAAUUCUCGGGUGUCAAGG: -0.342
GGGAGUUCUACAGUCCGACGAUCAAGUCCUGUGCUACACAUCGUAUGUACCGAAUCGGAAAAGGGAAAAGGGGAAAAGGGAAAGUAUUAUGUUACGCCGUUCGGAUCUGCACUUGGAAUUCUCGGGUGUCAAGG: 0.22
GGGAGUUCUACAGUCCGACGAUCAAGUCCUGUGCUACACAUCGUAUGUACCGAAUCGGAGGAAAAAAAGGAAAAAAAGGAAAGUAUUAUGUUACGCCGUUCGGAUCUGCACUUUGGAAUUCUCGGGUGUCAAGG: -0.573
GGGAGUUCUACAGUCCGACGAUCACCAAACAGGUGGGCAUCUUUGGGAAGUGGGGCAAGGGGGGGAUAGGGAGGGGGGUAACACUUUGGGAACAGGUGGUCCCAGGUCGUUUCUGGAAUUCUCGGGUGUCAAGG: 0.353
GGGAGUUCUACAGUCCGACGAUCAAGUCCUGUGCUACACAUCGUAUGUACCGAAUCGGAAAAAGGAAAAAGGGAAAAAGGAAAGUAUUAUGUUACGCCGUUCGGAUCUGCACUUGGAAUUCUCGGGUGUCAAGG: -0.471

For quick reference, copied from above (series 4):
GGAAUGC: 0.0442
UUUCCAU: -0.307
GGGAACA: 0.325
UUCCACC: -0.295
GUAAUCA: -0.179
ACUUAAG: -0.0409
